Assay results gathered from unrelated publications.
Compare with care: the assays were run in different laboratories. Numbers after ± are the reported error.
IDO1: Indoleamine 2,3-dioxygenase 1 (IDO1, Homo sapiens, UniProt P14902)

By UniProt entry, the sequences of proteins in these tests, tags left out. Residues count along the entry.
UniProt P14902, whole entry: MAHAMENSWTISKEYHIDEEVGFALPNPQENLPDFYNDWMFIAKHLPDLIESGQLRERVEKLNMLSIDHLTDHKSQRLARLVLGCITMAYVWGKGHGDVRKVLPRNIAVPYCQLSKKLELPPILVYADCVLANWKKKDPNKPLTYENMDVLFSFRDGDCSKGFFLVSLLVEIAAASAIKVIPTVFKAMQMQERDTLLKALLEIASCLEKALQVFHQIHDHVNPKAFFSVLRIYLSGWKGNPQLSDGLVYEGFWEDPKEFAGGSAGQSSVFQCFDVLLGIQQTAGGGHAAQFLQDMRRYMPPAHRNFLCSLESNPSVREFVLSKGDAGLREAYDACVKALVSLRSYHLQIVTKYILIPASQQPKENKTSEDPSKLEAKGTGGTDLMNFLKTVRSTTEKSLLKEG
UniProt Q9Y3Z3, whole entry: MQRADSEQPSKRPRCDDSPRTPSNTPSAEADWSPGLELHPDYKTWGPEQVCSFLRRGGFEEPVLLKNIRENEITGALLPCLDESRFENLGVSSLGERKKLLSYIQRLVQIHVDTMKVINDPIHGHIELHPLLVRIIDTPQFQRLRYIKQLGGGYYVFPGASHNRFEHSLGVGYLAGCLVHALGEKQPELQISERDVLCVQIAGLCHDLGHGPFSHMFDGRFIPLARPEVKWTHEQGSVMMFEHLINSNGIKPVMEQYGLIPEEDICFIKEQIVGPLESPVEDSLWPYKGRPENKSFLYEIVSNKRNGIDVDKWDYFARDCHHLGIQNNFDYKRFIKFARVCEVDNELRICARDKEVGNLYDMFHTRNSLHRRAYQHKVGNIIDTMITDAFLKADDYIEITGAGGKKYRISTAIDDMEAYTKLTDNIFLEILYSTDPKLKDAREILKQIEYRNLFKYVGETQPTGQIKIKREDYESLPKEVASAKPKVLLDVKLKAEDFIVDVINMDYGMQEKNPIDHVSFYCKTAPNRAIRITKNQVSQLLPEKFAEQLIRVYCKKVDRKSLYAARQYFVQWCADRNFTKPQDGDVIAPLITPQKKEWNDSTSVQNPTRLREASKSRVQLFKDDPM
UniProt P22455, 22-802 limits assumed: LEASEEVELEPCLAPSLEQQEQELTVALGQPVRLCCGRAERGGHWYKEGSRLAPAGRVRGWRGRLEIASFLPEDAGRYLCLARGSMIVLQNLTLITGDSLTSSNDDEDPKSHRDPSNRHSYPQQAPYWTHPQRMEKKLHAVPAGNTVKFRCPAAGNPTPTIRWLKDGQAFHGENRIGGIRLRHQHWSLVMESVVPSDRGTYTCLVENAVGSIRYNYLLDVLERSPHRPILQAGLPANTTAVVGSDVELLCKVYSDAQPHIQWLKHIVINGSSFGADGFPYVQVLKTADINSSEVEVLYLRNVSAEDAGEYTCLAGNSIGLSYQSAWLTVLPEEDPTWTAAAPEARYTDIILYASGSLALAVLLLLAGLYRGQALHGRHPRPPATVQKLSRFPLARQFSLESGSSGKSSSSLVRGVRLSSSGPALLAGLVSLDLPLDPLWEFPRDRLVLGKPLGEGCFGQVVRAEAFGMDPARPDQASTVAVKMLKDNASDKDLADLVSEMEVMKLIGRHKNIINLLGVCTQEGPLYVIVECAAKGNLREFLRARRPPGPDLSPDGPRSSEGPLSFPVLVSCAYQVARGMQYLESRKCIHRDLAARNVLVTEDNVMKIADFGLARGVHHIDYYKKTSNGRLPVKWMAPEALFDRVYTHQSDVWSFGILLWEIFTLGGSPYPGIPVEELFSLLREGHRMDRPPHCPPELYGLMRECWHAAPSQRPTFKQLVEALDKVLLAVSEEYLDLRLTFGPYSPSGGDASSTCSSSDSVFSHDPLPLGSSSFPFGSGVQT
UniProt Q04609, whole entry: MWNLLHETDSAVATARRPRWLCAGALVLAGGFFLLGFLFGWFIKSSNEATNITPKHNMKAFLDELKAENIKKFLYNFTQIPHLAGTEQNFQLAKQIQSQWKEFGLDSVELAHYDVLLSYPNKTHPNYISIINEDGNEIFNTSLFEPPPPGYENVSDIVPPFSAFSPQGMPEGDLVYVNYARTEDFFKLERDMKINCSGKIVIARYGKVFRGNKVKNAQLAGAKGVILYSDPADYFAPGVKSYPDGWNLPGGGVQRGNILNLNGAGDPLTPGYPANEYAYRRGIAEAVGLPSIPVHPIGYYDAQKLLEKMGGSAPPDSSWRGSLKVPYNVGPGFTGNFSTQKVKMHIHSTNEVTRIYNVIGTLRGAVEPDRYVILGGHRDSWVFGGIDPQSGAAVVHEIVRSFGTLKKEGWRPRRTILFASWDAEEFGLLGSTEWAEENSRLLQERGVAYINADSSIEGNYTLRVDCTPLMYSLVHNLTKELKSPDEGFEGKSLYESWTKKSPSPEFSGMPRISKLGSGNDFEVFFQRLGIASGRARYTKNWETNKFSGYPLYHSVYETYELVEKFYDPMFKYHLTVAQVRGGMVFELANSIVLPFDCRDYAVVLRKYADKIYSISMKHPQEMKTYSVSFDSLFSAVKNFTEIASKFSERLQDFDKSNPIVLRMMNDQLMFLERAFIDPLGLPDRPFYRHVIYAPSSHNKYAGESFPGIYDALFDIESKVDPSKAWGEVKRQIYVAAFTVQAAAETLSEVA
UniProt Q6P5Z2, whole entry: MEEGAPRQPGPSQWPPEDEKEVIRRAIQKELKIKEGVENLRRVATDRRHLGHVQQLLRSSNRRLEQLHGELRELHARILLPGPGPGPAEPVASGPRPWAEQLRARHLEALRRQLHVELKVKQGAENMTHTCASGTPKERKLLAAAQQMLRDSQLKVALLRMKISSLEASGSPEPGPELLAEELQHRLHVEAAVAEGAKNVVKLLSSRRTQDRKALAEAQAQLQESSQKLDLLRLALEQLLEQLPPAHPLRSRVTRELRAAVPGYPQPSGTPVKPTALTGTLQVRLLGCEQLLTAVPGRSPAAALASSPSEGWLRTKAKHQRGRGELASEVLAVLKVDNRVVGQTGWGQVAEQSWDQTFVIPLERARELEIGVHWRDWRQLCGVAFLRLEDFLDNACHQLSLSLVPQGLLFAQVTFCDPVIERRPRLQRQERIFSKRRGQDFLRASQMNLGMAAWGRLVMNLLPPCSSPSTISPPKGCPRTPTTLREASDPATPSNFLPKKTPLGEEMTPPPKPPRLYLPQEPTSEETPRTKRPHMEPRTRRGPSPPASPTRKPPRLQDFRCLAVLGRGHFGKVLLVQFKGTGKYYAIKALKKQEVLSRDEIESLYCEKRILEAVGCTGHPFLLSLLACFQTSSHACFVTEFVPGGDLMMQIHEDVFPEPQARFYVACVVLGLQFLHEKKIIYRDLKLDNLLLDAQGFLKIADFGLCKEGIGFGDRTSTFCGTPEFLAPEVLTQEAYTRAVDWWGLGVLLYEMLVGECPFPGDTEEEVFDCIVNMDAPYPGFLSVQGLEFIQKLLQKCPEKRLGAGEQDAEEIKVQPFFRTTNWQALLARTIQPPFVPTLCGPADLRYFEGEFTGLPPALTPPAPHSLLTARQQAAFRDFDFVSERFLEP
UniProt Q8TF76, whole entry: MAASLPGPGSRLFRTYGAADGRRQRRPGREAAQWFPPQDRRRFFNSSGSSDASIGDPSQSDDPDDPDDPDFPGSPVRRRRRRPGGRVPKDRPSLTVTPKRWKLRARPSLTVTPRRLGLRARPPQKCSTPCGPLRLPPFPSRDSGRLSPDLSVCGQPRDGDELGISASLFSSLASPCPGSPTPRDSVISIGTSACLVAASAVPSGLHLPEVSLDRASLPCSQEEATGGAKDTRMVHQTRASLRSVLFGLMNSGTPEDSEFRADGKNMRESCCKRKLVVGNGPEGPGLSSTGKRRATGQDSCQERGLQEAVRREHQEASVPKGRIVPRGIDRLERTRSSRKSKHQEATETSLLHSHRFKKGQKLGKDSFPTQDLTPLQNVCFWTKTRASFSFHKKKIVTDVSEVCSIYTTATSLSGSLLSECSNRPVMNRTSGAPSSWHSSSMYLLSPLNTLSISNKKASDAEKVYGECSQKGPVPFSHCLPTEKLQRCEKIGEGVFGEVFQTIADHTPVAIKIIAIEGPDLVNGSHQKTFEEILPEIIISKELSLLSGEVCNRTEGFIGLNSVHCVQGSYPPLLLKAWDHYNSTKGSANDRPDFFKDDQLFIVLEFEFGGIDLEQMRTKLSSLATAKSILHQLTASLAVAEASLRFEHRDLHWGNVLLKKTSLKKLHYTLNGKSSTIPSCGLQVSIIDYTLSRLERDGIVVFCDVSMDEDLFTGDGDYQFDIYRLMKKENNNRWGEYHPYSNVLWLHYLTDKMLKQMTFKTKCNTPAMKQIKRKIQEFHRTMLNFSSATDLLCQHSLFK
UniProt Q13304, whole entry: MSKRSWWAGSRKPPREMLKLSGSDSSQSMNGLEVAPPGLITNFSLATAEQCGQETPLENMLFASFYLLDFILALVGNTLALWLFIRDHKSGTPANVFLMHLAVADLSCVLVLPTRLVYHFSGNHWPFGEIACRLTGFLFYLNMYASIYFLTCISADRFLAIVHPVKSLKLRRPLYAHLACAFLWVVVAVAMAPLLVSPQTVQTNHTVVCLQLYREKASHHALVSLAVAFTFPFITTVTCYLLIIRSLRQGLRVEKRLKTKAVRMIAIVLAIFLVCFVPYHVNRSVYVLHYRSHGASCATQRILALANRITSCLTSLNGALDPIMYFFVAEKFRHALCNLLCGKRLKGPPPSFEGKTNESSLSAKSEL
UniProt P00558, whole entry: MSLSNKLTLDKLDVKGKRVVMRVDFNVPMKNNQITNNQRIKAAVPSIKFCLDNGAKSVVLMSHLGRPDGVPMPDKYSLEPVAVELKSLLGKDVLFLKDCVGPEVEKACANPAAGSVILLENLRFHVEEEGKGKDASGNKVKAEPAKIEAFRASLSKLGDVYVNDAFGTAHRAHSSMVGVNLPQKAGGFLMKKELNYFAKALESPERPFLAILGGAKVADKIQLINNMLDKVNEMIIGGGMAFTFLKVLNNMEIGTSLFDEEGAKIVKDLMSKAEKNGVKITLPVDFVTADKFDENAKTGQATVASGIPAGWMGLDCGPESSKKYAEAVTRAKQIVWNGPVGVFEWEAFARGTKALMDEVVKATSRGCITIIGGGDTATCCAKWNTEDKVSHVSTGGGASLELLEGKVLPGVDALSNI
UniProt O43353, whole entry: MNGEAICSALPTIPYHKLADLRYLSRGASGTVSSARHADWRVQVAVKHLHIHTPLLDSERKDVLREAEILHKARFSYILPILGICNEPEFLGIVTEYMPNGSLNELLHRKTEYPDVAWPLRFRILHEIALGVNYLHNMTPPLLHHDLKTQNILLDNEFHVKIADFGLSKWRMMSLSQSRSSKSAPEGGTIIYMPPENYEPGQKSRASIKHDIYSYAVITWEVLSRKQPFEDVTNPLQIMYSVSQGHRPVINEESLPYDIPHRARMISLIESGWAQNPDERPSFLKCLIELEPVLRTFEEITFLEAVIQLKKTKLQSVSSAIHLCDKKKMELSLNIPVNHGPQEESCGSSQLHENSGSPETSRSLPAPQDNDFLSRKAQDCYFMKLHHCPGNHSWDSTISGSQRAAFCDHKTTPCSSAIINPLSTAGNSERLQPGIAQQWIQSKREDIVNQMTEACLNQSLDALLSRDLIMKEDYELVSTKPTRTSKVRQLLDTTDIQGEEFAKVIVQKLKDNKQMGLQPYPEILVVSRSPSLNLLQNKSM
UniProt Q96RJ0, whole entry: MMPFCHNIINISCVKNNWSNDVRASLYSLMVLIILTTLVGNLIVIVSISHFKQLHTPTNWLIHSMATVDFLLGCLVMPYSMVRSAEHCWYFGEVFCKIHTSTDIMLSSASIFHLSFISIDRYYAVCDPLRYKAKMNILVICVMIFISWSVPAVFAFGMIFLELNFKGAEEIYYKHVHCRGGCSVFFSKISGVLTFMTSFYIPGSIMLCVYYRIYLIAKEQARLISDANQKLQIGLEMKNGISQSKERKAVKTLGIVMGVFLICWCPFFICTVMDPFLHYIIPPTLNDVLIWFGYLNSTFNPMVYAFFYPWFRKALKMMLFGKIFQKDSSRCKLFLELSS
UniProt P29466, whole entry, looked up: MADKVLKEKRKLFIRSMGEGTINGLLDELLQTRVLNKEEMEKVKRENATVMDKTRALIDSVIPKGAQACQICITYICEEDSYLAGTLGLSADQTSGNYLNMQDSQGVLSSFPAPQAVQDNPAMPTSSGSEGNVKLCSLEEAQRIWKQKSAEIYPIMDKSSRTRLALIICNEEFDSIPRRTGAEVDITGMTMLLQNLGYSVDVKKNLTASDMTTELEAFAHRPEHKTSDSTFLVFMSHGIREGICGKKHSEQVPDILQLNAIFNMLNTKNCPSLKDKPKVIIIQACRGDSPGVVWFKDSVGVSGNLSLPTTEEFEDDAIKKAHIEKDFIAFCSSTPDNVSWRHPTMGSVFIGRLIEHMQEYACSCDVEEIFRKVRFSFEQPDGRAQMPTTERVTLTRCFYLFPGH

SMILES | target | assay | test system | conditions | IC50
O=C(c1ccc(O)c(I)c1)N1Cc2ccccc2C1 | HSP90AA1 (Homo sapiens, UniProt P07900) | binding, fluorescence polarization |  | with: FITC-geldanamycin tracer | > 100 µM
Cc1c(N)cccc1C(=O)N1C[C@H](O)C[C@H]1C(=O)NCc1ccc(-c2cnco2)cc1 | von Hippel-Lindau disease tumor suppressor, with elongin B, C (VHL, Homo sapiens, UniProt P40337) | binding, fluorescence polarization |  | 1% DMSO, with: FAM-HIF1α peptide tracer | 14 ± 0.7 µM
Nc1nc2c(ncn2COCCNC(=O)c2cc3cc(Br)ccc3c(Br)c2O)c(=O)[nH]1 | SAMHD1 (Homo sapiens, UniProt Q9Y3Z3) | ssDNA binding, fluorescence anisotropy |  | 1 µM protein, with: FAM-labelled 32-mer ssDNA probe | ~5 µM
O=C(Nc1cccc(F)c1)c1cc(S(=O)(=O)N2CCOCC2)c(Cl)cc1Cl | Autotaxin (ENPP2, Homo sapiens, UniProt Q13822) | enzyme activity, inhibitor |  | 4 h, with: 1 µM FS-3 | 0.032 ± 0.0058 µM
CS(=O)(=O)Nc1ccc(/C=C/c2c[nH]c3ccc(C#N)cc23)cc1 | IDO1 | enzyme activity, inhibitor |  |  | > 50 µM
CCN1CCN(c2ccc(Nc3ncc4c(n3)N(C)C(=O)N(c3cc(NC(=O)c5cccc(C(F)(F)F)c5)ccc3C)C4)cn2)CC1 | FGFR4 (Homo sapiens, UniProt P22455) | enzyme activity, inhibitor, radiometric kinase |  |  | < 0.001 µM
CCS(=O)(=O)N(C)C(CCC(=O)O)C(=O)O (stereo not shown) | FOLH1 (Homo sapiens, UniProt Q04609) | enzyme activity, inhibitor, HPLC |  | 15 min, pH 7.4, 37 °C, 1% Triton X-100, with: 10 mM glutamate dipeptide substrate | > 100 µM
COc1cc2nccc(Nc3ccc(NC(=O)c4ccc(C)cc4)c(O)c3)c2cc1OC | PKN3 (Homo sapiens, UniProt Q6P5Z2) | binding, split-luciferase |  |  | 38 µM
CC(C)CNC(=O)CSc1nc2ccc(NC(=O)CSc3ccccc3C(C)C)cc2s1 | Estrogen receptor (ESR1, Homo sapiens, UniProt P03372) | reporter gene, antagonist | HEC-1 transfected ERα luciferase reporter |  | > 50 µM
COc1ccc2nc3ccccc3c(SCCCN)c2c1 | HASPIN (Homo sapiens, UniProt Q8TF76) | inhibitor, TR-FRET |  | with: histone H3 peptide | 0.017 µM
CC(=NNC(=N)N)c1ccc(NC(=O)c2c[nH]c3ccccc23)cc1 | CHEK2 (Homo sapiens, UniProt O96017) | kinase activity, inhibitor, IMAP fluorescence polarisation |  | 60 min | 0.00136 ± 0.00071 µM
O=C(O)c1cc(C(=O)N[C@@H](Cc2ccc(O)cc2)C(=O)O)cc([C@H]2CCN[C@@H]2C(=O)O)c1 | kainate receptor (rat) | binding, radioligand binding | rat cortical synaptosomes | with: [3H]kainate | 10 to 50 µM
O=C(Nc1ccc(Cl)cc1)C(NS(=O)(=O)c1cccs1)c1ccc(Cl)cc1 (stereo not shown) | Uracil nucleotide/cysteinyl leukotriene receptor, long isoform (GPR17, Homo sapiens, UniProt Q13304) | calcium mobilization, antagonist | 1321-N1 |  | 9.98 ± 1.54 µM
CCOC(=O)c1nc2cc(Cl)c(Cl)cc2nc1N1CCN(C(=O)Nc2ccc(F)cc2)CC1 | PGK1 (Homo sapiens, UniProt P00558) | enzyme activity, inhibitor, GAPDH-coupled |  | with: ATP 1.5 mM, 3-phosphoglycerate 2 mM | 0.32 ± 0.06 µM
O=C(NC1CC=C(c2cc3c(Nc4cc5ncsc5cc4F)ncnc3s2)CC1)NC1CCCCC1 (stereo not shown) | RIPK2 (Homo sapiens, UniProt O43353) | kinase activity, inhibitor |  |  | 0.017 µM
CCOc1ccc(-c2cc(C(F)(F)F)c(C#N)c(SCC(=O)Nc3ccccc3F)n2)cc1 | TAAR1 (Homo sapiens, UniProt Q96RJ0) |  |  |  | > 10 µM
N#Cc1ccc2[nH]cc(/C=C/c3ccncc3)c2c1 | IDO1 | enzyme activity, inhibitor |  |  | > 50 µM
COc1cccc(C(=O)Nc2ccc(-c3nc4ccccc4s3)cc2)c1 | Moesin, with CD44 (Homo sapiens, UniProt P26038) | MSN-CD44 interaction, inhibitor, TR-FRET |  | with: CD44 | > 100 µM
O=C(CN1C(=O)C=CC1=O)N1CCN(c2cc(N3CCCC3)nc(N3CCCC3)n2)CC1 | Caspase-1 (CASP1, Homo sapiens, UniProt P29466) | inhibitor |  | 60 min preincubation | 0.042 ± 0.021 µM
